Measurements from different studies.
Protocols differ between the studies behind these lines. Numbers after ± are the reported error.

| Structure (SMILES) | assay | test system | conditions | scale | retention time [min] |
| --- | --- | --- | --- | --- | --- |
| CC(C)C[C@@H]1NC(=O)[C@H](CCCCN)NC(=O)[C@H](C(C)C)NC(=O)[C@@H]2CCCN2C(=O)[C@@H](Cc2ccc(O)cc2)NC(=O)[C@H](CC(C)C)NC(=O)[C@H](CCCCN)NC(=O)[C@H](C(C)C)NC(=O)[C@H](CCCCN)NC(=O)[C@H](CC(C)C)NC(=O)[C@H](CCCCN)NC(=O)[C@@H]2CCCN2C(=O)[C@@H](Cc2ccc(O)cc2)NC(=O)[C@H](CCCCN)NC(=O)[C@H](C(C)C)NC(=O)[C@H](CCCCN)NC1=O | RP-HPLC C8 |  | 70 °C, water/acetonitrile TFA gradient |  | 22.8 |
| Cc1c(C)c(C)[c-](C)c1C.O=[N+]([O-])c1ccnc(-c2[c-]cccc2)c1.[Cl-].[Ir+3] | RP-HPLC | C18 column, water/acetonitrile | with: 50 mM NaCl | longer = more hydrophobic | 18 ± 0.1 |
| CCCCCCCCCCCC(=O)N[C@@H](CCCCN)C(=O)N[C@@H](CCCCN)C(=O)N[C@@H](CCCCN)C(=O)N[C@@H](CCCCN)C(=O)N[C@@H](CCCCN)C(N)=O | RP-HPLC C18 |  |  |  | 10.9 |
| CC(=O)N[C@@H](Cc1c[nH]c2ccccc12)C(=O)N[C@@H](CCCCN)C(=O)N[C@@H](Cc1ccccc1)C(=O)N[C@@H](CCC(=O)O)C(=O)N[C@@H](Cc1c[nH]c2ccccc12)C(=O)N[C@@H](CCCCN)C(=O)N[C@@H](Cc1ccccc1)C(=O)N[C@@H](CCC(=O)O)C(N)=O | reverse-phase HPLC C18 |  |  |  | 12.7 |
| CC(C)C[C@@H]1NC(=O)[C@H](CCCCN)NC(=O)[C@H](C(C)C)NC(=O)[C@@H]2CCCN2C(=O)[C@@H](Cc2ccc(O)cc2)NC(=O)[C@H](CC(C)C)NC(=O)[C@H](CCCCN)NC(=O)[C@H](C(C)C)NC(=O)[C@@H]2CCCN2C(=O)[C@@H](Cc2ccc(O)cc2)NC1=O | RP-HPLC C8 |  | 70 °C, water/acetonitrile TFA gradient |  | 30.3 |
| CC(=O)N[C@H](CCCCN)C(=O)N[C@H](CC(C)C)C(=O)N[C@H](CCCCN)C(=O)N[C@H](CO)C(=O)N[C@H](CC(C)C)C(=O)N[C@H](CC(C)C)C(=O)N[C@H](CCCCN)C(=O)N[C@@H](C(=O)N[C@H](CC(C)C)C(=O)N[C@H](CO)C(=O)N[C@H](CCCCN)C(=O)N[C@H](C)C(=O)N[C@H](CCCCN)C(=O)N[C@H](CCCCN)C(=O)N[C@H](CCCCN)C(=O)N[C@H](CCCCN)C(=O)N[C@H](CC(C)C)C(=O)N[C@H](CCCCN)C(=O)N[C@@H](C(=O)N[C@H](CC(C)C)C(=O)N[C@H](CC(C)C)C(=O)N[C@H](CCCCN)C(=O)N[C@H](C)C(=O)N[C@H](CC(C)C)C(=O)N[C@H](CO)C(=O)N[C@H](CCCCN)C(N)=O)[C@H](C)O)[C@H](C)O | RP-HPLC C8 |  | pH 2, hydrophobicity measure |  | 83.6 |
| CC(C)C[C@H](NC(=O)[C@@H]1CSCC(=O)NCCCC[C@@H]2NC(=O)CSC[C@H](NC(=O)[C@H](CCCCN)NC2=O)C(=O)N[C@@H](CCCCN)C(=O)N[C@@H](CC(C)C)C(=O)N1)C(N)=O | analytical RP-HPLC | C18 column | 10.00 min gradient, 0.05% TFA |  | 2.52 |
| CCCCCCCCCCCCCCCCCC(=O)N[C@@H](CCCCN)C(=O)N[C@@H](CCCCN)C(=O)N[C@@H](CCCCN)C(=O)N[C@@H](CCCCN)C(=O)N[C@@H](CCCCN)C(N)=O | RP-HPLC C18 |  |  |  | 15.8 |
| CC[C@@H](C)[C@@H](NC(=O)[C@@H](C)NC(=O)[C@@H](CCCCN)NC(=O)[C@@H](CC(C)C)NC(=O)[C@@H](CC(C)C)NC(=O)[C@H](NC(=O)[C@@H](CCCCN)NC(=O)[C@@H](CC(C)C)NC(=O)[C@@H](C)NC(=O)[C@@H](CCCCN)NC(=O)[C@@H](CCCCN)NC(=O)[C@@H](CCCCN)NC(=O)[C@@H](C)NC(=O)[C@@H](CCCCN)NC(=O)[C@@H](CO)NC(=O)[C@@H](Cc1ccccc1)NC(=O)[C@H](NC(=O)[C@@H](CCCCN)NC(=O)[C@@H](CC(C)C)NC(=O)[C@@H](Cc1ccccc1)NC(=O)[C@@H](CO)NC(=O)[C@@H](CCCCN)NC(=O)[C@@H](Cc1c[nH]c2ccccc12)NC(=O)[C@@H](CCCCN)NC(C)=O)[C@H](C)O)[C@H](C)O)C(=O)N[C@H](CO)C(=O)N[C@H](CCCCN)C(N)=O | RP-HPLC C8 |  | pH 2, hydrophobicity measure |  | 90.7 |
| CC(C)C[C@@H]1NC(=O)[C@H](CCCCN)NC(=O)[C@H](C(C)C)NC(=O)[C@@H]2CCCN2C(=O)[C@@H](Cc2ccc(O)cc2)NC(=O)[C@H](CC(C)C)NC(=O)[C@H](CCCCN)NC(=O)[C@H](C(C)C)NC(=O)[C@H](CCCCN)NC(=O)[C@H](CC(C)C)NC(=O)[C@H](CCCCN)NC(=O)[C@@H]2CCCN2C(=O)[C@@H](Cc2ccc(O)cc2)NC(=O)[C@H](C(C)C)NC(=O)[C@H](CCCCN)NC1=O | RP-HPLC C8 |  | 70 °C, water/acetonitrile TFA gradient |  | 25.9 |
| N=C(N)NCCC[C@H](NC(=O)[C@H](Cc1c[nH]c2ccccc12)NC(=O)[C@H](CCC(N)=O)NC(=O)[C@H](Cc1c[nH]c2ccccc12)NC(=O)[C@H](CCCNC(=N)N)NC(=O)[C@H](Cc1c[nH]c2ccccc12)NC(=O)[C@H](CCC(N)=O)NC(=O)[C@H](Cc1c[nH]c2ccccc12)NC(=O)[C@@H](N)CCCNC(=N)N)C(N)=O | RP-HPLC C18 |  | hydrophobicity measure |  | 6.4 |
| CC(C)C[C@@H]1NC(=O)[C@H](CCCCN)NC(=O)[C@H](C(C)C)NC(=O)[C@H](CCCCN)NC(=O)[C@@H]2CCCN2C(=O)[C@@H](Cc2ccc(O)cc2)NC(=O)[C@H](CCCCN)NC(=O)[C@H](CCCCN)NC(=O)[C@H](C(C)C)NC(=O)[C@@H]2CCCN2C(=O)[C@@H](Cc2ccc(O)cc2)NC1=O | RP-HPLC C8 |  | 70 °C, water/acetonitrile TFA gradient |  | 19.1 |
| CC[C@H](C)[C@H](NC(=O)[C@H](CCCNC(=N)N)NC(=O)[C@H](CCCCN)NC(=O)[C@H](Cc1ccc(O)cc1)NC(=O)[C@H](CC(=O)O)NC(=O)[C@H](C)NC(=O)CNC(=O)CCOCCOCCOCCNC(=O)CN1CCN(CC(=O)O)CCN(CC(=O)O)CCN(CC(=O)O)CC1)C(=O)N[C@H](C(=O)N[C@H](C(=O)N[C@@H](CCCCN)C(=O)N[C@H](C(=O)N[C@@H](CC(N)=O)C(N)=O)C(C)C)C(C)C)[C@@H](C)O [copper-64 labelled] | radio-RP-HPLC |  | MeCN/water TFA gradient | longer means more hydrophobic | 7.48 |
| N=C(N)NCCC[C@H](NC(=O)[C@H](Cc1c[nH]c2ccccc12)NC(=O)[C@H](CCC(N)=O)NC(=O)[C@H](Cc1c[nH]c2ccccc12)NC(=O)[C@H](CCCNC(=N)N)NC(=O)[C@H](Cc1c[nH]c2ccccc12)NC(=O)[C@H](CCC(N)=O)NC(=O)[C@H](Cc1c[nH]c2ccccc12)NC(=O)[C@H](CCCNC(=N)N)NC(=O)CCCCCNC(=O)CCCC[C@@H]1SC[C@@H]2NC(=O)N[C@@H]21)C(N)=O | RP-HPLC, C18 column |  | water/acetonitrile gradient with TFA |  | 6.9 |
| CC[C@@H](C)[C@@H](NC(=O)[C@@H](CC(C)C)NC(=O)[C@@H](CCCCN)NC(=O)[C@@H](CC(C)C)NC(=O)[C@@H](CC(C)C)NC(=O)[C@H](NC(=O)[C@@H](Cc1c[nH]cn1)NC(=O)[C@@H](CC(C)C)NC(=O)[C@@H](CCCCN)NC(=O)[C@H](NC(=O)[C@@H](CCCCN)NC(=O)[C@@H](CCCCN)NC(=O)[C@@H](CC(C)C)NC(=O)[C@@H](CO)NC(=O)[C@@H](CCCCN)NC(=O)[C@@H](Cc1ccccc1)NC(=O)[C@H](NC(=O)[C@@H](CCCCN)NC(=O)[C@@H](CC(C)C)NC(=O)[C@@H](Cc1ccccc1)NC(=O)[C@@H](CO)NC(=O)[C@@H](CCCCN)NC(=O)[C@@H](Cc1c[nH]c2ccccc12)NC(=O)[C@@H](CCCCN)NC(C)=O)[C@H](C)O)[C@H](C)O)[C@H](C)O)C(=O)N[C@H](CO)C(=O)N[C@H](CO)C(N)=O | RP-HPLC C8 |  | pH 2 |  | 80.4 |
| CCCCCCCCCCCCCC(=O)N[C@@H](CCCCN)C(=O)N[C@@H](CCCCN)C(=O)N[C@@H](CCCCN)C(=O)N[C@@H](CCCCN)C(=O)N[C@@H](CCCCN)C(N)=O | RP-HPLC C18 |  |  |  | 12.5 |
| Cc1c(C)c(C)[c-](C)c1C.Cc1ccc[c-]c1-c1ccccn1.[Cl-].[Ir+3] | RP-HPLC | C18 column, water/acetonitrile | with: 50 mM NaCl | longer = more hydrophobic | 20.4 ± 0.2 |
